Published values from different studies.
Compare with care: the assays were run in different laboratories. Values joined by “and” are separate records of one study, mostly repeats; a detail may differ.
Partner: itself
B1: BcsB/BcsC TPR1-4 fused to BcsB (Escherichia coli); chain VEAAPTAQQQLLEQVRLGEATHREDLVQQSLYRLELIDPNNPDVVAARFRSLLRQGDIDGAQKQLDRLSQLAPSSNAYKSSRTTMLLSTPDGRQALQQARLQATTGHAEEAVASYNKLFNGAPPEGDIAVEYWSTVAKIPARRGEAINQLKRINADAPGGSGSGSGVQGADAPVVAQNGPSRDVKLTFAQIAPPPGSMVLRGINPNGSIEFGMRSDEVVTKAMLNLEYTPSPSLLPVQSQLKVYLNDELMGVLPVTKEQLGKKTLAQMPINPLFISDFNRVRLEFVGHYQDVCEKPASTTLWLDVGRSSGLDLTYQTLNVKNDLSHFPVPFFDPSDNRTNTLPMVFAGAPDVGLQQASAIVASWFGSRSGWRGQNFPVLYNQLPDRNAIVFATNDKRPDFLRDHPAVKAPVIEMINHPQNPYVKLLVVFGRDDKDLLQAAKGIAQGNILFRGESVVVNEVKPLLPRKPYDAPNWVRTDRPVTFGELKTYEEQLQSSGLEPAAINVSLNLPPDLYLMRSTGIDMDINYRYTMPPVKDSSRMDISLNNQFLQSFNLSSKQEANRLLLRIPVLQGLLDGKTDVSIPALKLGATNQLRFDFEYMNPMPGGSVDNCITFQPVQNHVVIGDDSTIDFSKYYHFIPMPDLRAFANAGFPFSRMADLSQTITVMPKAPNEAQMETLLNTVGFIGAQTGFPAINLTVTDDGSTIQGKDADIMIIGGIPDKLKDDKQIDLLVQATESWVKTPMRQTPFPGIVPDESDRAAETRSTLTSSGAMAAVIGFQSPYNDQRSVIALLADSPRGYEMLNDAVNDSGKRATMFGSVAVIRESGINSLRVGDVYYVGHLPWFERVWYALANHPILLAVLAAISVILLAWVLWRLLRIISRRRLNPDNE
B2: lacI 1-360 (Escherichia coli, UniProt P03023); chain MKPVTLYDVAEYAGVSYQTVSRVVNQASHVSAKTREKVEAAMAELNYIPNRVAQQLAGKQSLLIGVATSSLALHAPSQIVAAIKSRADQLGASVVVSMVERSGVEACKAAVHNLLAQRVSGLIINYPLDDQDAIAVEAACTNVPALFLDVSDQTPINSIIFSHEDGTRLGVEHLVALGHQQIALLAGPLSSVSARLRLAGWHKYLTRNQIQPIAEREGDWSAMSGFQQTMQMLNEGIVPTAMLVANDQMALGAMRAITESGLRVGADISVVGYDDTEDSSCYIPPLTTIKQDFRLLGQTSVDRLLQLSQGQAVKGNQLLPVSLVKRKTTLAPNTQTASPRALADSLMQLARQVSRLESGQ
B3: CRYBB2 (Homo sapiens, UniProt P43320); sequence looked up; chain MASDHQTQAGKPQSLNPKIIIFEQENFQGHSHELNGPCPNLKETGVEKAGSVLVQAGPWVGYEQANCKGEQFVFEKGEYPRWDSWTSSRRTDSLSSLRPIKVDSQEHKIILYENPNFTGKKMEIIDDDVPSFHAHGYQEKVSSVRVQSGTWVGYQYPGYRGLQYLLEKGDYKDSSDFGAPHPQVQSVRRIRDMQWHQRGAFHPSN
B4: SSBP1 19-148 (Homo sapiens, UniProt Q04837); chain ETTTSLVLERSLNRVHLLGRVGQDPVLRQVEGKNPVTIFSLATNEMWRSGDSEVYQLGDVSQKTTWHRISVFRPGLRDVAYQYVKKGSRIYLEGKIDYGEYMDKNNVRRQATTIIADNIIFLSDQTKEKE
B5: HSPD1 mature V72I (Homo sapiens, UniProt P10809); sequence looked up; chain AKDVKFGADARALMLQGVDLLADAVAVTMGPKGRTVIIEQSWGSPKVTKDGVTVAKSIDLKDKYKNIGAKLIQDVANNTNEEAGDGTTTATVLARSIAKEGFEKISKGANPVEIRRGVMLAVDAVIAELKKQSKPVTTPEEIAQVATISANGDKEIGNIISDAMKKVGRKGVITVKDGKTLNDELEIIEGMKFDRGYISPYFINTSKGQKCEFQDAYVLLSEKKISSIQSIVPALEIANAHRKPLVIIAEDVDGEALSTLVLNRLKVGLQVVAVKAPGFGDNRKNQLKDMAIATGGAVFGEEGLTLNLEDVQPHDLGKVGEVIVTKDDAMLLKGKGDKAQIEKRIQEIIEQLDVTTSEYEKEKLNERLAKLSDGVAVLKVGGTSDVEVNEKKDRVTDALNATRAAVEEGIVLGGGCALLRCIPALDSLTPANEDQKIGIEIIKRTLKIPAMTIAKNAGVEGSLIVEKIMQSSSEVGYDAMAGDFVNMVEKGIIDPTKVVRTALLDAAGVASLLTTAEVVVTEIPKEEKDPGMGAMGGMGGGMGGGMF
B6: SiRe_0131 (Saccharolobus islandicus, UniProt F0NG80); sequence looked up; chain MEKIVKVNDTTYILEDERSVVITFKLEENILSMVDEIVKKLGYDYRSDFIRDAIEKYINYLKSSSNNSKMNINE
B7: phage phi29 gene 12 product D1*-D2-D3-D4 89-854 G817S/S777N/D701G/A535V/D457E/G449V/D372A/Q181E/K166R/E695Q (bacteriophage phi29, UniProt P20345); N-terminal His6; sequence looked up; chain FADLVIQVIDELKQFGVSVKTYGAKGDGVTDDIRAFEKAIESGFPVYVPYGTFMVSRGIKLPSNTVLTGAGKRNAVIRFMDSVGRGESLMYNENVTTGNENIFLSSFTLDGNNKRLGQGISGIGGSRESNLSIRACHNVYIRDIEAVDCTLHGIDITCGGLDYPYLGDGTTAPNPSENIWIENCEATGFGDDGITTHHSQYINILNCYSHDPRLTANCNGFEIDDGSRHVVLSNNRSKGCYGGIEIKAHGDAPAAYNISINGHMSVEDVRSYNFRHIGHHAATAPQSVSAKNIVASNLVSIRPNNKRGFQDNATPRVLAVSAYYGVVINGLTGYTDDPNLLTETVVSVQFRARNCSLNGVVLTGFSNSENGIYVIGGSRGGDAVNISNVTLNNSGRYGVSIGSGIENVSITNISGIGDGINSPVALVSTINSNPEISGLSSIGYPTVARVAGTDYNDGLTLFNGAFRASTTSSGKIHSEGFIMGSTSGCEASVSKSGVLTSSSSKTSSERSLIAGSSTSEAKGTYNTILGSLGAVADEQFAALISASQSRASGNHNLILSSYGINTTGSYKVNGGFEKINWELDSLNGRIKARDTVTGGNTWSDFAQYFESLGGQVIETGYLVTLEKGKIRKAEKGEKIIGVISETAGFVLGESSFEWQGAVLKNEFGGIIYEEVTTEDGVKFKRPLPNPDFDPNKNYIPRSQRREWHVVGLLGQIAVRIDETVKQGHSIDAVGGVATDGDNFIVQEITTPYTKEKGYGVAIVLVK
B8: RICE2 (Arabidopsis thaliana, UniProt Q9FNG3); sequence looked up; chain MASFDGPKFKMTDGSYVQTKTIDVGSSTDISPYLSLIREDSILNGNRAVIFDVYWDVGFPETETKTKTSGWSLSSVKLSTRNLCLFLRLPKPFHDNLKDLYRFFASKFVTFVGVQIEEDLDLLRENHGLVIRNAINVGKLAAEARGTLVLEFLGTRELAHRVLWSDLGQLDSIEAKWEKAGPEEQLEAAAIEGWLIVNVWDQLSDE
B9: spo0J (Bacillus subtilis, UniProt P26497); chain MAKGLGKGINALFNQVDLSEETVEEIKIADLRPNPYQPRKHFDDEALAELKESVLQHGILQPLIVRKSLKGYDIVAGERRFRAAKLAGLDTVPAIVRELSEALMREIALLENLQREDLSPLEEAQAYDSLLKHLDLTQEQLAKRLGKSRPHIANHLRLLTLPENIQQLIAEGTLSMGHGRTLLGLKNKNKLEPLVQKVIAEQLNVRQLEQLIQQLNQNVPRETKKKEPVKDAVLKERESYLQNYFGTTVNIKRQKKKGKIEIEFFSNEDLDRILELLSERES
B10: lapB 21-389 (Escherichia coli, UniProt P0AB58); sequence looked up; chain RRSAQQNKQDEANRLSRDYVAGVNFLLSNQQDKAVDLFLDMLKEDTGTVEAHLTLGNLFRSRGEVDRAIRIHQTLMESASLTYEQRLLAIQQLGRDYMAAGLYDRAEDMFNQLTDETDFRIGALQQLLQIYQATSEWQKAIDVAERLVKLGKDKQRVEIAHFYCELALQHMASDDLDRAMTLLKKGAAADKNSARVSIMMGRVFMAKGEYAKAVESLQRVISQDRELVSETLEMLQTCYQQLGKTAEWAEFLQRAVEENTGADAELMLADIIEARDGSEAAQVYITRQLQRHPTMRVFHKLMDYHLNEAEEGRAKESLMVLRDMVGEKVRSKPRYRCQKCGFTAYTLYWHCPSCRAWSTIKPIRGLDGL
B11: sso0001 1-202 C188A (Sulfolobus solfataricus, UniProt Q97TX9); chain MITEFLLKKKLEEHLSHVKEENTIYVTDLVRCPRRVRYESEYKELAISQVYAPSAILGDILHLGLESVLKGNFNAETEVETLREINVGGKVYKIKGRADAIIRNDNGKSIVIEIKTSRSDKGLPLIHHKMQLQIYLWLFSAEKGILVYITPDRIAEYEINEPLDEATIVRLAEDTIMLQNSPRFNWEAKYCIFSVICPAKLT
B12: ABCG25 1-662 E232Q (Arabidopsis thaliana, UniProt Q84TH5); chain MSAFDGVENQMNGPDSSPRLSQDPREPRSLLSSSCFPITLKFVDVCYRVKIHGMSNDSCNIKKLLGLKQKPSDETRSTEERTILSGVTGMISPGEFMAVLGPSGSGKSTLLNAVAGRLHGSNLTGKILINDGKITKQTLKRTGFVAQDDLLYPHLTVRETLVFVALLRLPRSLTRDVKLRAAESVISELGLTKCENTVVGNTFIRGISGGERKRVSIAHELLINPSLLVLDQPTSGLDATAALRLVQTLAGLAHGKGKTVVTSIHQPSSRVFQMFDTVLLLSEGKCLFVGKGRDAMAYFESVGFSPAFPMNPADFLLDLANGVCQTDGVTEREKPNVRQTLVTAYDTLLAPQVKTCIEVSHFPQDNARFVKTRVNGGGITTCIATWFSQLCILLHRLLKERRHESFDLLRIFQVVAASILCGLMWWHSDYRDVHDRLGLLFFISIFWGVLPSFNAVFTFPQERAIFTRERASGMYTLSSYFMAHVLGSLSMELVLPASFLTFTYWMVYLRPGIVPFLLTLSVLLLYVLASQGLGLALGAAIMDAKKASTIVTVTMLAFVLTGGYYVNKVPSGMVWMKYVSTTFYCYRLLVAIQYGSGEEILRMLGCDSKGKQGASAATSAGCRFVEEEVIGDVGMWTSVGVLFLMFFGYRVLAYLALRRIKH
B13: tnsC 1-503 (Escherichia coli, UniProt P05846); sequence looked up; chain MSATRIQAVYRDTGVEAYRDNPFIEALPPLQESVNSAASLKSSLQLTSSDLQKSRVIRAHTICRIPDDYFQPLGTHLLLSERISVMIRGGYVGRNPKTGDLQKHLQNGYERVQTGELETFRFEEARSTAQSLLLIGCSGSGKTTSLHRILATYPQVIYHRELNVEQVVYLKIDCSHNGSLKEICLNFFRALDRALGSNYERRYGLKRHGIETMLALMSQIANAHALGLLVIDEIQHLSRSRSGGSQEMLNFFVTMVNIIGVPVMLIGTPKAREIFEADLRSARRGAGFGAIFWDPIQQTQRGKPNQEWIAFTDNLWQLQLLQRKDALLSDEVRDVWYELSQGVMDIVVKLFVLAQLRALALGNERITAGLLRQVYQDELKPVHPMLEALRSGIPERIARYSDLVVPEIDKRLIQLQLDIAAIQEQTPEEKALQELDTEDQRHLYLMLKEDYDSSLLIPTIKKAFSQNPTMTRQKLLPLVLQWLMEGETVVSELEKPSKSKKVS
B14: RBKS D27A (Homo sapiens, UniProt Q9H477); sequence looked up; chain MAASGEPQRQWQEEVAAVVVVGSCMTALVSLTSRLPKTGETIHGHKFFIGFGGKGANQCVQAARLGAMTSMVCKVGKDSFGNDYIENLKQNDISTEFTYQTKDAATGTASIIVNNEGQNIIVIVAGANLLLNTEDLRAAANVISRAKVMVCQLEITPATSLEALTMARRSGVKTLFNPAPAIADLDPQFYTLSDVFCCNESEAEILTGLTVGSAADAGEAALVLLKRGCQVVIITLGAEGCVVLSQTEPEPKHIPTEKVKAVDTTGAGDSFVGALAFYLAYYPNLSLEDMLNRSNFIAAVSVQAAGTQSSYPYKKDLPLTLF

| Substance | method | notes | with | subunits per oligomer |
| --- | --- | --- | --- | --- |
| B1 (BcsB/BcsC TPR1-4 fused to BcsB) | cryo-EM | – | – | 3 and 4 |
| B2 (lacI 1-360) | SEC | – | – | 4 |
| B3 (CRYBB2) | native MS | abundances relative to monomer | – | 2 |
| MKGMSKMPQFNLVWPREVLDLVRKVAEENGRSVNSEIYQRVMESFKKEGRIGA (Arc repressor 1-53 R13V (P22 phage, UniProt P03050)) | SEC | – | – | 2 |
| B4 (SSBP1 19-148) | SEC | – | – | 4 |
| B5 (HSPD1 mature V72I) | cryo-EM | – | – | 7 |
| B6 (SiRe_0131) | SEC | – | – | 2 |
| B7 | crystal structure | – | – | 3 |
| B8 (RICE2) | SEC | – | – | 6 |
| B9 (spo0J) | SEC-MALS | – | – | 2 |
| B10 (lapB 21-389) | cryo-EM | – | – | 2 |
| B11 (sso0001 1-202 C188A) | SEC | – | – | 5 protomers |
| B12 (ABCG25 1-662 E232Q) | cryo-EM | – | – | 2 |
| B13 (tnsC 1-503) | dynamic light scattering | – | ATP | 2 |
| RBCK1 (Homo sapiens, UniProt Q9BYM8-1) | SEC-MALS | – | – | 2 |
| B14 (RBKS D27A) | mass photometry | – | – | 2 |

For quick reference, copied from above:
| Substance | method | notes | with | subunits per oligomer |
| --- | --- | --- | --- | --- |
| RBCK1 (Homo sapiens, UniProt Q9BYM8-1) | SEC-MALS | – | – | 2 |
| B14 (RBKS D27A) | mass photometry | – | – | 2 |
